Measurements pooled from the literature.
Each numbered part is a random draw from the data of one study; scales do not carry over between parts. Positions count from the first letter of the parent shown.

Block 1
Target: CCNF, cyclin fold, Cln2 fusion (human)
Technique: yeast growth competition, sequencing
Matrix: yeast
Notes: strong parent motif
Relative to: not given
Reading: higher = stronger binding
Measurement: normalised enrichment score
Parent: CDC25A docking peptide (human); PPHRRRLLFACSP
PPHRYRLLFACSP [R5Y]: 1.08
PPHRRRLLFACSC [P13C]: 7.71
PPHRRRLLFAWSP [C11W]: 6.56
PPHRRRLYFACSP [L8Y]: 8.66
PPHRMRLLFACSP [R5M]: 2.13
PPHRRRLLVACSP [F9V]: 1.8
PPHRRRLLFAGSP [C11G]: 7.49
PPHRRRLLPACSP [F9P]: 0.956
PPHRRRLLFACSQ [P13Q]: 6.82
PPHRGRLLFACSP [R5G]: 2.24
YPHRRRLLFACSP [P1Y]: 8.41
PPHRRRLLTACSP [F9T]: 1.43
PPHRRRLPFACSP [L8P]: 1.14
PPTRRRLLFACSP [H3T]: 8.94
PPHRRRLLEACSP [F9E]: 1.59
PPHRRMLLFACSP [R6M]: 7
PPHRARLLFACSP [R5A]: 1.52
PPHRRRLLNACSP [F9N]: 1.33
PPHRRRYLFACSP [L7Y]: 1.96
PPHRRRLLFFCSP [A10F]: 7.63
PPHRRRLGFACSP [L8G]: 2.51
PPERRRLLFACSP [H3E]: 7.8
PPHRRRLLFAMSP [C11M]: 7.78
PPHRKRLLLACSP [R5K F9L]: 0.863

Block 2
Target: RNA binding protein fox-1 homolog 2, RRM domain, GST-SBP tag (RBFOX2, Homo sapiens, UniProt O43251-10, residues 100-194)
Technique: RNA Bind-n-Seq
Molecule type: RNA
Matrix: in vitro
Concentration: 365 nM
Notes: natural RNA segment, single round, ends assumed
Relative to: no-protein control
Reading: higher = stronger binding
Measurement: RBNS enrichment (R)
Shared flanks, not repeated: GGGAGUUCUACAGUCCGACGAUC … UGGAAUUCUCGGGUGCCAA
Residues (chain): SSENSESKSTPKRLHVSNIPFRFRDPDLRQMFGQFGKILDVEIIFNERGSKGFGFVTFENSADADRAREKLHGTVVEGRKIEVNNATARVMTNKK
UCAUAAAAGUAGCAACCUUCAUUUUACAUUCUGUCUGUUUUUCUUUUUUUGCUUUGUUUUGUUUGUGCUAAUUUGGGAAUUGUGUACUCCGAAACAAGUAGAAAAGUGCU: 1.18
AAAUAUUUUAUUUGAUAAAGAUAGUUGAUGGUUUAUUUUAAAAGAUGCACUUUGAGUUGCAAUAUGUUAUUUUUAUAUGGGCCAAAACUACAAAAAAAAAAAAGAGGAAA: 0.661
CUUUGAAAAUCCCCAAUUUGGUUCUGCUUUUUGACCUCUCUCUACCUUUUCAGGGUAAUCUUUGUGGCACAAACGAUAGCAUUUCCAAGCUUUAGAGUUUUCUGAAUUCC: 0.308
CUACUGAAUCAGAAACCCUGGGGUUGGAGCUCAGCAAUUACCCUGCAGGUAAUUCUGAUGCAUGCUCAAGUUUGAGAACCACUGGCCUAGAAGAAAUGAACUACUGCAAC: 17.8
GUAAAGCGCCCAGCAGGAACCACAGGCACUCUGUGCUGUUUGUACUUGAGGUAUGUACCAUUUGUAUACCUGAAUUUAUUUUAAAGAUAAACUGAAAUGCACAUAGCCAA: 0.455
CAAAACAAAUAGCCAACAAACAGGAAUUCAGGGUCGCUUUGCUUGCUCUCUGUGCUCUGUGGUGGCUUCCAUGCACUGCUGUGGCCAUGGAGACCCAGCUCCUUGCACGG: 1.17
GAAUGAGUUCUCUGUUGUGCCCCCACUGCAGCUGUCUCUUGUGCUCUCCAGGUAUGCAGCUCAUAUGCUUGUGUCUGGACUUCCAUUUUCUUACUUCAGGGAGGGGACAG: 1.56
ACUGCUAGUGUGAUUGGUUGAUCAGCAAAACAGCUGCUCUCAUUUUGUUUUGGAGGAACCCUGGUGGUUUGACAGCCAGGAGAAAGGCCAUAUGUGAAACCAGUCUCUUG: 0.619
UUCAAAAGAGGGCUUUCCAGGGCUCAGCUCCCAACCAGCUGUUAGGACCCCACCCUUUUGCCUUUAUUGUCGACGUGACUCACCAGACGUCGGGGAGAGAGAGCAGUCAG: 0.322
CAUGCCCAUUAGCAGAGGCUGCUGCUGAUGUGGCAGCUGCUCCCUACCACCCGCCCUGGCUCCCCAGCUGCAGGUUGCACACCCUCAGCCUGAGAAUGUAAAAUAGGGCA: 3.21
UUCUAAUGACAACUUCUUUAAUCCUUCCGGGUCAUAUAUUAUAUUUCCAUAGUAUCACAUACUAUUAUUUAGUUGUUUACAAGACUCCAAUUUGAAUUCAGGAUUACAGU: 0.488
CCAGAGCCCCACGCGGCUGCCCGGCAGUACCUCCUCCAGGCAGGAGCCGGGACUGUCACUUUGGAGACAAAACAGUGUUUGUAACAAUAACGUACUCACCGCCGCGGACA: 0.227

Block 3
Target: Histone acetyltransferase KAT6A, winged helix 2, GST fusion (KAT6A, Homo sapiens, UniProt Q92794, residues 85-181)
Technique: protein binding microarray
Molecule type: double-stranded DNA, one strand shown
Matrix: in vitro
Concentration: not given
Notes: 8-mer, flanks averaged, mean of 2 arrays, mostly near background
Relative to: not given
Reading: higher = stronger binding
Measurement: E-score
Target sequence (chain): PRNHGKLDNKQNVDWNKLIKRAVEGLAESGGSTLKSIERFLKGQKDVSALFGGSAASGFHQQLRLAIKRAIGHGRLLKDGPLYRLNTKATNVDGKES
CGTGTGTC: -0.082
AAAGACTG: -0.245
CTCAACAA: 0.21
CGGGCACG: 0.148
AATTGTGG: -0.225
GTACCGGA: -0.0325
CAACTTTC: -0.0223
ACAGAACT: -0.0958
GTGGCAAA: 0.0309
AATTAGCC: 0.144
GGAATTAA: 0.0985
CAAAGAGA: 0.17
CGTGAGAA: 0.101
GAGTTCAC: 0.04
CTGAGCAC: 0.0481
CTTTGGAA: -0.0298
TATTGAAA: 0.133
ACCCGGTA: -0.0699
ATCACAGC: 0.00975
ACCCATCT: -0.0565
GGTTTCTA: 0.0113
AGACTTTG: -0.232
GCAGGGCC: 0.136
ACGAGGTC: 0.215
AGCCAGAG: 0.0566

Block 4
Target: CEBPA, bZIP domain (human)
Technique: DHFR protein complementation
Matrix: yeast
Notes: single substitutions, most at no-binding floor
Relative to: wild-type JUN-FOS pair
Reading: higher = stronger binding
Measurement: binding fitness
Parent: JUN, bZIP domain (human); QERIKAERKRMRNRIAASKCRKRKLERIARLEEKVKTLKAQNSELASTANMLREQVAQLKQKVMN; partner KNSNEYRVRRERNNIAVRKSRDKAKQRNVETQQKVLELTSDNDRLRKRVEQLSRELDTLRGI
L59C: -1.57 natural log
R30E: -1.39 natural log
K34C: -1.42 natural log
S43L: -1.42 natural log
A49F: -1.44 natural log
S43C: -1.36 natural log
E33S: -1.44 natural log
S43D: -1.4 natural log
V35Q: -1.55 natural log
K34F: -1.58 natural log
Q55Y: -1.41 natural log
L52A: -1.51 natural log
L38C: -1.48 natural log
A29M: -1.53 natural log
A29V: -1.51 natural log
A29I: -1.49 natural log
A46F: -1.36 natural log
E44Q: -1.43 natural log
K39E: -1.33 natural log
L38I: -1.48 natural log
Q55T: -1.43 natural log

Block 5
Target: ABI1, truncated, D143A, DHFR fusion (Arabidopsis thaliana, UniProt P49597)
Technique: DHFR PCA, dose-response
Matrix: yeast
Notes: Hill fit, mean, not affinity
With: (+)-ABA, dose series
Reading: lower = more sensitive
Measurement: ABA EC50
Parent: PYL1, truncated, DHFR fusion (Arabidopsis thaliana, UniProt Q8VZS8); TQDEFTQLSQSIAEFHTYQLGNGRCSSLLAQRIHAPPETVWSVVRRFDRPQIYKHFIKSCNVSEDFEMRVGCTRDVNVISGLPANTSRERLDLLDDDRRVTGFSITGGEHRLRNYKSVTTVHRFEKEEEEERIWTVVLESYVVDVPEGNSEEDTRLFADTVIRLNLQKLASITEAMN
D96V: 185 µM
D97Y: 5.44 µM
S42K: 2.55 µM
R69Q: 3.05 µM
E127W: 4.41 µM
E152C: 5.73 µM
S80T: 11.7 µM
E128I: 3.87 µM
T73A: 16 µM
L20E: 1.62 µM
E147F: 3.35 µM
L138I: 14 µM
K168T: 0.857 µM
S26Y: 7.14 µM
R113G: 17.7 µM
R113V: 6.36 µM
V136C: 6.84 µM
T154V: 2.37 µM
Y53M: 105 µM
H16R: 583 µM
C25T: 8.47 µM
L8H: 12.6 µM
